Assay results collected from several papers.
± gives the spread as reported.

SMILES | method | sample | concentration | time | pH | temperature | fu
C/C(=N\c1ccc(O)cc1)c1cc2ccccc2n1C | ultrafiltration | rat plasma | 500 ng/mL | 1 h |  | 37 °C | 0.005
Cc1cc(C)c(CNC(=O)c2cc(Cl)c3c(c2C)O[C@@](C)([C@H]2CC[C@H](N(C)C)CC2)O3)c(=O)[nH]1 | ultracentrifugation | 0.1% human alpha-1-acid glycoprotein | 3000 ng/mL | 160 min |  |  | 0.152
Cc1nc2ccc(OCc3ccc(C(F)(F)F)cc3)cc2[nH]1 | rapid equilibrium dialysis | mouse plasma | 2 µM | 4 h |  | 37 °C | 0.27
COc1ccc(CCNCCCC(C#N)(c2ccc(OC)c(OC)c2)C(C)C)cc1OC (stereo not drawn) | equilibrium dialysis | human plasma | 2 µM | 20 h | pH 7.4 | 37 °C | 0.145 ± 0.023
Cc1cnc(N2CC3(CCOCC3)C2)c(C(=O)Nc2ccc(C(=O)N3CCc4cc(C(=O)Nc5c(C)cccc5F)sc4-c4ccccc43)cc2)c1 |  | human plasma |  |  |  |  | 0.01
CC[C@H]1OC(=O)[C@H](C)[C@@H](O[C@H]2C[C@@](C)(OC)[C@@H](O)[C@H](C)O2)[C@H](C)[C@@H](O[C@@H]2O[C@H](C)C[C@H](N(C)C)[C@H]2O)[C@](C)(O)C[C@@H](C)C(=O)[C@H](C)[C@@H](O)[C@]1(C)O | equilibrium dialysis | human plasma | 2 µM | 20 h | pH 7.4 | 37 °C | 0.285 ± 0.01
COc1ccc2cc(CCC[18F])ccc2c1 | gel filtration | human plasma |  | 120 min |  | 37 °C | 0.223
OCc1nc2ccc(NCc3ccc(C(F)(F)F)cc3)cc2[nH]1 | rapid equilibrium dialysis | mouse brain homogenate | 2 µM | 4 h |  | 37 °C | 0.0454
CC(=O)N1CCN(c2ccc(OCC3COC(Cn4ccnc4)(c4ccc(Cl)cc4Cl)O3)cc2)CC1 (stereo not drawn) | equilibrium dialysis | pooled human plasma |  |  |  |  | 0.0163
